# Experimental data gathered from unrelated publications.
# A part holds a random share of what one study measured.

# Set 1 — organism: Saccharomyces cerevisiae; read-out: cell growth; technique: competitive growth deep sequencing; form: peptide; setting: peptide tiling library; together with: cyclin F-Cln2 fusion; direction: direction not given
Sequence,enrichment score
DKYDEGLYRFNSLNDL,-0.0021
QNPCGSKACRRLFGPV,2.8
AKRSLGFLPQPVPL,1.42
RQVRRDLFAF,0.305
VKRLNFRSEEME,1.55
SPPRGRRLFPPGPAGF,2.84
NEGVSNAVRRSLYIRD,0.671
HPESPPRKRLKSKGSD,5.27
RTEALEQGGLPKKLIF,2.12
GPVKLEFDVSDGAT,1.48
LENIEPLQVSFAVLSS,0.689
QYQVVDDIVSKLVFDF,0.268
KRCATPVIIDEILPSK,0.227
EPRNLLSLFEDTLDPT,3.01

# Set 2 — technique: universal PBM; form: double-stranded DNA, one strand shown; sample: in vitro; concentration: 600 nM; direction: higher = stronger binding
# Target: Sal-like protein 4, full length isoform A (SALL4, Homo sapiens, UniProt Q9UJQ4, residues 1-1053)
# Sequence of UniProt Q9UJQ4 (whole entry, looked up): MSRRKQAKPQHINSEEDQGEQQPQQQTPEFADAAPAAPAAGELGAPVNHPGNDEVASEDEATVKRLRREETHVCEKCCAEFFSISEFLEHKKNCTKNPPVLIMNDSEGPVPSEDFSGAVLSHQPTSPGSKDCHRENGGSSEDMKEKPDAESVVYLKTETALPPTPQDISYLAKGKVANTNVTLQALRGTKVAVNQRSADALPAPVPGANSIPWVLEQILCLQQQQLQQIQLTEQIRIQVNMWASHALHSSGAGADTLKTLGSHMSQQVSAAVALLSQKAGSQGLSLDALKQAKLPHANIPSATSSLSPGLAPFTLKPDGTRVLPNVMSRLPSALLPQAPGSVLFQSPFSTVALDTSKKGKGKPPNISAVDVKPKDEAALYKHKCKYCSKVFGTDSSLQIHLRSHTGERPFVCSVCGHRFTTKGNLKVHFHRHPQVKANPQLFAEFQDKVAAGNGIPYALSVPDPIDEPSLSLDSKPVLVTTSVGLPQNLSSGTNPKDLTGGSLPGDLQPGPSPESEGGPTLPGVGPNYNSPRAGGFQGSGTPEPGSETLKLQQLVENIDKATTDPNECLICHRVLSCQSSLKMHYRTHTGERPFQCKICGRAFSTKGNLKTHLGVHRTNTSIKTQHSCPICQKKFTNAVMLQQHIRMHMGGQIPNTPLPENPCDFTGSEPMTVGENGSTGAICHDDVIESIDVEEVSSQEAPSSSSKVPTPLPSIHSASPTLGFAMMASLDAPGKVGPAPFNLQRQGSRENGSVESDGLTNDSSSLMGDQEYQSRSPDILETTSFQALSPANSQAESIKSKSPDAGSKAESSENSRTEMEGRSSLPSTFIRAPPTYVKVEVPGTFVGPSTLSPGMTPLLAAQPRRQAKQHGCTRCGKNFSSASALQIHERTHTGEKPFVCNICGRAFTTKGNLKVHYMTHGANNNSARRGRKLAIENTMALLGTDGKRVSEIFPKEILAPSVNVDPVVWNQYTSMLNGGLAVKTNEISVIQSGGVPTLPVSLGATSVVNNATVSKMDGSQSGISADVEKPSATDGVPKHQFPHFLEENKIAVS
# Setting: 8-mer, flanks averaged, mean of replicates
Oligonucleotide,E-score
CCATTGTC,0.0137
ACTAATAA,0.347
ATCGAGGA,0.0904
ACAAATGT,0.256
GCCCTCCA,-0.296
ACGAGACA,-0.0919
CTACCGCC,-0.32
GATCCCTA,-0.117
CTTGTACC,-0.00556
CCGCCAAC,-0.311
ACTGCTCT,-0.00257
CAGCGATA,0.0468
GTTCGGGA,-0.176
TAGATGAA,0.233
AGCGATCG,-0.13
ATCGCTTC,0.105
ATGACGTC,0.00448
ACAGCACG,-0.232
CGCTCACC,-0.275
AAATTTCG,0.155
TAAATTTA,0.36
GGAACAGA,-0.0243
AGCACCTC,-0.24
GCATGTCA,0.0559
CGGATTAC,-0.0347

# Set 3 — technique: protein-binding microarray; form: double-stranded DNA, one strand shown; sample: in vitro; concentration: 0.8 µM; setting: whole 60-bp probe, no competitor; direction: higher = stronger binding; all sequences stand within: … GTCTTGATTCGCTTGACGCTGCTG
# Target: Centromere-binding protein 1, full length, N-terminal tag (CBF1, Saccharomyces cerevisiae, UniProt P17106, residues 1-351)
# Sequence of UniProt P17106 (whole entry, looked up): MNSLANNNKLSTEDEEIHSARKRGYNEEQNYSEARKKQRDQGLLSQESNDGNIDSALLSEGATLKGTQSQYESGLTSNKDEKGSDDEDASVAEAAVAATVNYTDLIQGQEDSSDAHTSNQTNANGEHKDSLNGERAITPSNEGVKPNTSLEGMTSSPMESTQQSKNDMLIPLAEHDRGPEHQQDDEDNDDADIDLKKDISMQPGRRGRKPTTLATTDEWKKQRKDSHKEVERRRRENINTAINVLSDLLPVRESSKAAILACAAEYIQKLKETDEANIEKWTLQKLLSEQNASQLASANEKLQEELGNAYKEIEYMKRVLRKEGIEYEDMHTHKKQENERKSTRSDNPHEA
Oligonucleotide,fluorescence intensity [a.u.]
CTAGGTTCTTTTTCCCACGTATCGGTCCCTGAGTTC,527
GAAGGTTGTTTTACGAACATGTGATTCGGAAATTAG,6390
TGTACGAAGCTATCTCGTGATACTATAGTAGTTAGG,1400
CTAAATTCTATTGGGCATCACATGGCAAAGCATTTC,2510
GAAAAATTGTATGCTGACGTCAACTTTTTATTATAG,504
CTACTTTGATCTGCTGATGTAGCAATGTTTTTTTTC,644
CTATATTTATACTGTCACGAAATTTACAGGAAGTTC,648
GAAGCTTCGGAAAGTTGCGTGATTGCATTAAAGTAG,645
CTAGCGCGAGTTTCCCGGGTGATGGAGCAGTAATTC,523
CTACAATTAAAAAAACACGAGGAACAGAATGTCTTC,830
GAAATACTCTAATATCTCACCTGATCCTTTTTGTAG,960
CTAGATATAACTCATCACATGTTAAAGAACCCATTC,2780
CCTAACTACTATAACGTGATAACATAGCTTCGTACA,1420
GAAGTCGAAAAAATAAACGTGCGTCGTGGAACTTAG,568
GAACATTGCTATCATGACGTATTTTTAATGTTATAG,568
GAAGGAGAATATATTGACGTGCACATTAATTATTAG,570
GAACATAGCGTATACACGTGCACTCACAAGCATTAG,5470
CTAAAATTAAGGTATCACGAGACACATGGAATATTC,2840
CTACATATATACCGTCATGAAGTAGCTTAACTTTTC,538
CTAGTCATAATTTCACGTGTTATAATAGCCATGTTC,3080
GAATACTTCAACAGATTCGTGATCTGGAAAAGATAG,743
GAATAGACACTCTATCATCAGAAACATCCGAATTAG,481
CTACTTGGCATTCATCACCCGGTGATGCTGCGCTTC,473

# Set 4 — technique: RNA Bind-n-Seq; form: RNA; sample: in vitro; concentration: 365 nM; relative to: no-protein control; direction: higher = stronger binding
# Target: RNA binding protein fox-1 homolog 2, RRM domain, GST-SBP tag (RBFOX2, Homo sapiens, UniProt O43251-10, residues 100-194)
# Setting: natural RNA segment, single round, ends assumed
# All sequences stand within: GGGAGUUCUACAGUCCGACGAUC … UGGAAUUCUCGGGUGCCAA
# Target sequence (chain): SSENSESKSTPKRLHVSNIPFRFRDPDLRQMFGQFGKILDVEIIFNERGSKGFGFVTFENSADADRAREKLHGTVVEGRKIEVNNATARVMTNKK
Oligonucleotide,RBNS enrichment (R)
UUGCCACUGAAAUGUUUUUUUACUUGUUGAUAGUGUCAGGGCCCCCCUUCCAUCCCCAUGGGCUUGACUCUCAACCUGUUACUGUAAACUGCGAUCCUUCCCACCGUCAG,0.704
CUCUUUUGGAAAACAAAAAUCAGAAGGCUGCAUUCUAGAGGGCAGAGAAAUUCCCCCGAAGACUGAGCUGGUUGCCUGCAUCCUCUAUCUUCUUUGACCCUUAUGACUGA,0.902
CUCCCAUGUGGAGUAUCAGUCGCUCACAGGACUUGGAUCUGAAGCACAGUAAACGCAAGAGGGGAUUUGUGUACAAAAGGCAAAAAAAGUAUUUGAUAUCAUUGUACAUA,0.431
CUGACAGCUUACGUGUCAGAGGGCAGAACUCAGCCAGUCCUGUGGUUUCAGGUGUUAAUAUGUAAACAAGCAUCUCAUUUAACUUCACUGUGCUCAGCUUUGAAAAGAAC,0.447
AAGAAAAAUUACUUUUUACUUCUGUUCUUAUCCAUUCGGCAUGUUGUCUUCUUUUUUCCUUUUUAAAGGUAGUGGUAUAACUAACUAAUAACUUUCAAAAUUACCUGCUU,2.73
AACUGUGCUAAGAGAUCUUGACACAGCAGUAAGAUUCCAGUCUCCUUAUUACCAAACUCUCAACUCAUACGCAGCUUCAAUUUCCGAAAUGGCUUCAAAUAGGGAGGGUA,0.382
AGCAAAUGGUUUUGGGCAAGGGCUUUGGCCAUUCAUGUCAAGCUGGUUGUGGGUUUUUCAAGGUGCCAUAGCCACCCCCAAAGAUGUUUGUUUAAAGCGUGGGGUUUUUU,0.621
GAACGGCAGCCCAGCCGUGGGACGGACGUGGACGUUUACUGCAUUCCUGUUUGCCGUGUAAAUGUUAGAAAGGAAUUAAAGUUAUUACUCGGAAUAAAGGAUGACUUUGG,0.653
GUUUGCCUCAACAUUCUUUGUCAUCUACAAAGUAUUUUGGCUUACAAAAGUUCUUUGUAAAGAUGCUUAUUUUACAGUUAUCUGACACAGCAGCUUGUUACCAACAUUUU,0.497
GUUAUUUAAUUUACUGACUGAAAUCCAAUUUGGAAUUUGGUAGCAGUUAAUUCAAGCCAAUUUUUUUUGUUUCUUCAUUUCCCCUCCCCCAAUCCAUGAAAGCCUAAAUG,0.939
CACUUAAAGUCUUCAGCCCAGCUACUUCCCUAUUUUUGUGGGGAGAAGAGGGCCUGAUUAGAACUGUUCUGGUUGUGUUUGGCGGGAGGGGAAUAAUUUUUGUUCAGUCC,0.31
GGAGAACACCAGCCCCACCUGGACCCCGUGACCUUUGCCCUCUGACCUGCCACGGCCACCUCCGAGACAAAAUCCUUGCUGCUUCUCUUUCAUGGUGCUGUCCCGCCGGA,0.362

# Set 5 — technique: protein-binding microarray; form: double-stranded DNA, one strand shown; sample: in vitro; concentration: 2540 nM top; setting: 60-bp whole probe; together with: salmon DNA 0.4 mg/ml; relative to: random background probes; direction: higher = stronger binding; all sequences stand within: GCCTAGCAC … GTCTTGATTCGCTTGACGCTGCTG
# Target: Interferon regulatory factor 3, full length, phosphomimetic (IRF3, Homo sapiens, UniProt Q14653, residues 1-427, S386D/S396D/S398D/S402D/T404D/S405D)
# Target sequence (chain): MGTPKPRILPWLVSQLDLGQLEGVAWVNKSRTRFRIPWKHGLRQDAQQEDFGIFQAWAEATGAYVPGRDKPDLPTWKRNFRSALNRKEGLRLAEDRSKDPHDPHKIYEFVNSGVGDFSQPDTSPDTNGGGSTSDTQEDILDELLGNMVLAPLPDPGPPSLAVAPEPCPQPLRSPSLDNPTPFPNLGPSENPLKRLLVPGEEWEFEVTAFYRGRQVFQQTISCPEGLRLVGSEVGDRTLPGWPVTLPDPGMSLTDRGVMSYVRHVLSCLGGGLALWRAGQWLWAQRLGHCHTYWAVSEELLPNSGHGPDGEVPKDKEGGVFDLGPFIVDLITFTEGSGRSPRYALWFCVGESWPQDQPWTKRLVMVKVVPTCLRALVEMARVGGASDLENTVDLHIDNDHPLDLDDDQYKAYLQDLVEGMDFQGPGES
Oligonucleotide,fitted relative affinity
TCAACTTTCCAATTGTCACTGTGCTAG,4.51 z-score
GACGATATCGGGTTTCCAGACGTGCTA,1.8 z-score
TTAGGTTTCCGTTCCCTTTAGTGCTAG,8.42 z-score
GACGGACTGGACACTGGGGTCGTGCTA,-0.606 z-score
GTCAAACTCACTCATGGCTTTGTGCTA,-0.378 z-score
TTCACTTTCCAAAACATGAAGTGCTAG,4.49 z-score
GAGGATTCCAGTTTCGAGACGTGCTAG,3.42 z-score
AGACTTCTCCATTTTTCTAGGTGCTAG,0.957 z-score
TGGCCTCTAGGTTTTCTGAAGTGCTAG,-0.839 z-score
GAAGGTTTCCTTATCCTGACGTGCTAG,7.72 z-score
CACGGTATCGGTCTCGGGACGTGCTAG,4.13 z-score
TTAGGACTCGACTTTCGGTTAGTGCTA,1.19 z-score
GACGGACTGCTTCTCCTGACGTGCTAG,-0.202 z-score
TTAGTTCTCGGTATCGGTTAGTGCTAG,2.47 z-score
GACGATTCCAATTTCGAGACGTGCTAG,2.19 z-score
GTAGGTATCGACTATCGGTTAGTGCTA,0.464 z-score
GACGAACTGGGTTATCGAGACGTGCTA,-0.308 z-score
TCAAATTGTCCTTTCACACTGTGCTAG,2.39 z-score
GACGGTATCGGGACTGGGGAAGTGCTA,1.83 z-score
GTAGGTATCGGTCTCGGTTAGTGCTAG,4.62 z-score
TTAGGCCTCGGTCTCGGTTAGTGCTAG,-0.503 z-score
TCAATCCCCAGTCTCATACTGTGCTAG,0.49 z-score
TTAGAACTGAGGCTGGATTAGTGCTAG,-0.688 z-score
GACGGTCTCCTTATCCTGAAGTGCTAG,2.88 z-score
TTAGATATCGGGTTTCGATTAGTGCTA,2.07 z-score

# Some of these lines once more (set 1):
Sequence,enrichment score
SPPRGRRLFPPGPAGF,2.84
NEGVSNAVRRSLYIRD,0.671
HPESPPRKRLKSKGSD,5.27
RTEALEQGGLPKKLIF,2.12
GPVKLEFDVSDGAT,1.48
